Published values pooled from the literature.
± marks the error that the study gave.
Sequence of UniProt P21729 (whole entry, looked up): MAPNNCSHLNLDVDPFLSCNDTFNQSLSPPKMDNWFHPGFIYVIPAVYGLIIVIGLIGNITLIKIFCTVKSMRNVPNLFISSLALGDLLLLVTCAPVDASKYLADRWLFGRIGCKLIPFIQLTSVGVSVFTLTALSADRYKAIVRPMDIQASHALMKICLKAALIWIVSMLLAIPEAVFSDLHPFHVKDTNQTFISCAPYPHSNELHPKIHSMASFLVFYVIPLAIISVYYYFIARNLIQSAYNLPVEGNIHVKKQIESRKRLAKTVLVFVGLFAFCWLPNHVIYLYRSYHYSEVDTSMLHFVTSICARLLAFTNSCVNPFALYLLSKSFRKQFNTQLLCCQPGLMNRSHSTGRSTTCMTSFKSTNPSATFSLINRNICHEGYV
Sequence of UniProt Q15858 (whole entry, looked up): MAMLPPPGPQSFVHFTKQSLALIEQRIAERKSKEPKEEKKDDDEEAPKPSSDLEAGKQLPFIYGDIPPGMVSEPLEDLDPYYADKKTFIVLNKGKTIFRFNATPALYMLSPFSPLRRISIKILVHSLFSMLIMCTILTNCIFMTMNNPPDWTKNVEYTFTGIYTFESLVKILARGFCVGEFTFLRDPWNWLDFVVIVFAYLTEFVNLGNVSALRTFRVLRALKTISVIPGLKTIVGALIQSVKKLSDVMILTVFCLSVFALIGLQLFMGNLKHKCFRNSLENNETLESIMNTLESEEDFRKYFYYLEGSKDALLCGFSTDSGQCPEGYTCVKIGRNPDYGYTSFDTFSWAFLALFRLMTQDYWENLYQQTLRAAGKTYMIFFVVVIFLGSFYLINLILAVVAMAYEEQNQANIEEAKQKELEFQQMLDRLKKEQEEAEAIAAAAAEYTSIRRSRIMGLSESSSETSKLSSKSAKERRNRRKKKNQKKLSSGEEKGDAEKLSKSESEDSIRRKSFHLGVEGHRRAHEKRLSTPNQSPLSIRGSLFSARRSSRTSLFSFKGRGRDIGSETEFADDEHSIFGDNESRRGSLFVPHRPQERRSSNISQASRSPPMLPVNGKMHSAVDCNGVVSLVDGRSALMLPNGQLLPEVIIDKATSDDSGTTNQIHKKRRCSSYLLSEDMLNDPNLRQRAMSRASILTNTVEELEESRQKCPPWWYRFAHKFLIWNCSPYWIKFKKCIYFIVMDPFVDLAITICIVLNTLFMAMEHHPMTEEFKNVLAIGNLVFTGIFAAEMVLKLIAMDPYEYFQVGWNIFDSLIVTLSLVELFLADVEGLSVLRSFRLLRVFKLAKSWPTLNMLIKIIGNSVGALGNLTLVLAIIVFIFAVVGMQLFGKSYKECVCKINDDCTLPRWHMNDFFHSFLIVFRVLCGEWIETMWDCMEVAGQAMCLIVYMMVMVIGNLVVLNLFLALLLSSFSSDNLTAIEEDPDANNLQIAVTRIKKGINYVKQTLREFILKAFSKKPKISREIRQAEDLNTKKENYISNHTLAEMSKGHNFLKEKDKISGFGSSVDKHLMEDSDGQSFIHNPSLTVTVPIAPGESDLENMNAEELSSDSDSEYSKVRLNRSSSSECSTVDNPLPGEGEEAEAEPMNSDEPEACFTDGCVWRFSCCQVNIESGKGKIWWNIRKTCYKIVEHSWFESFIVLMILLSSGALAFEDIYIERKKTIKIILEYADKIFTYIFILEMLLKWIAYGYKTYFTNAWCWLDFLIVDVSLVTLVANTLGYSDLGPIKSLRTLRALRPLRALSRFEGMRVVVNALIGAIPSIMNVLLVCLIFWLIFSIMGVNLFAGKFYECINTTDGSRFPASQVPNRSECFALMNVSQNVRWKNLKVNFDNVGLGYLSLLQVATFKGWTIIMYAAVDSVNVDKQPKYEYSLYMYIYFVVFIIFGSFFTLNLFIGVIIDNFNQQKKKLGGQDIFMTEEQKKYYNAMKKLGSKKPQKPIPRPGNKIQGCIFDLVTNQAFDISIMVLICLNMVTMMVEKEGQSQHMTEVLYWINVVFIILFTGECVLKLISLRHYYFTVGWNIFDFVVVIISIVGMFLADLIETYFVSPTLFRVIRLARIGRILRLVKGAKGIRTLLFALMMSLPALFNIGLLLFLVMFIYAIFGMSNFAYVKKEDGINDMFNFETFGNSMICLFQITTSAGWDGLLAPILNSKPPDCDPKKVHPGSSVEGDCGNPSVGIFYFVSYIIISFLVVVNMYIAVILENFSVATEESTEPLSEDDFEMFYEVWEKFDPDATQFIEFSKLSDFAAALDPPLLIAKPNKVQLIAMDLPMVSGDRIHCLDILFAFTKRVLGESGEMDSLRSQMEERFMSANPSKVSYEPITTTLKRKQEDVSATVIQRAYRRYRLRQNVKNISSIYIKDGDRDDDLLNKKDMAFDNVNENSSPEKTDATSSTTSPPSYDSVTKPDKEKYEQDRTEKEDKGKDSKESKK

CCCNC(=O)[C@H](CC(C)C)NC(=O)[C@H](Cc1c[nH]cn1)NC(=O)CNC(=O)[C@@H](NC(=O)[C@H](C)NC(=O)[C@H](Cc1c[nH]c2ccccc12)NC(=O)[C@H](CCC(N)=O)NC(=O)[C@@H](Cc1ccccc1)NC(=O)CCCCCNC(=O)CN1CCN(CC(=O)O)CCN(CC(=O)O)CCN(CC(=O)O)CC1)C(C)C [indium-111 labelled]
tissue uptake (Gastrin-releasing peptide receptor (Mus musculus, UniProt P21729); biodistribution; CF-1 mice, blood; intravenous, 1 h, unblocked): 0.16 ± 0.09 %ID/g

N=C(N)NCCC[C@@H]1NC(=O)[C@H](CCCCNC(=O)CCOCCOCCOCCOCCNC(=O)CN2CCN(CC(=O)O)CCN(CC(=O)O)CCN(CC(=O)O)CC2)NC(=O)[C@@H](Cc2ccccc2)NC(=O)[C@H](CC(=O)O)NC(=O)CNC1=O [indium-111 labelled]
tissue uptake (female athymic nude mice, muscle; intravenous, 3 µCi, 0.5 h, U-87 MG glioma xenograft): 1.2 ± 0.35 %ID/g

CCCC[C@H](NC(=O)CCCCCCCNC(=O)c1ccc(NN)nc1)C(=O)N[C@H]1CC(=O)NCCCC[C@@H](C(N)=O)NC(=O)[C@H](Cc2c[nH]c3ccccc23)NC(=O)[C@H](CCCNC(=N)N)NC(=O)[C@@H](Cc2ccccc2)NC(=O)[C@H](Cc2c[nH]cn2)NC1=O [technetium-99m labelled]
tissue uptake (C57 mouse, B16/F1 melanoma, muscle; 2 h, together with: L-lysine 12 mg co-injected): 0.07 ± 0.06 %ID/g

CC(C)C[C@H](NC(=O)[C@@H]1CCCN1C(=O)[C@H](CCCCN)NC(=O)[C@@H](N)CO)C(=O)N1CCC[C@H]1C(=O)N[C@@H](CCC(=O)O)C(=O)N[C@H](C(=O)N[C@H](C(=O)N[C@@H](CC(=O)O)C(=O)N[C@@H](CCC(=O)O)C(=O)N[C@@H](Cc1ccc(O)cc1)C(=O)N[C@@H](Cc1cn(CCOCCOCCOCCNC(=O)CCc2ccc(O)c(CN(CCN(CC(=O)O)Cc3cc(CCC(=O)NCCCC[C@H](NC(=O)N[C@@H](CCC(=O)O)C(=O)O)C(=O)O)ccc3O)CC(=O)O)c2)nn1)C(=O)O)[C@@H](C)O)C(C)C [gallium-68 labelled]
standardised uptake value (NMRI nu/nu mouse, LNCaP tumour, tumour; 135.34 nmol/kg, low molar activity): 0.43 g/g

C[C@@H](NC(=O)[C@@H](CCC(N)=O)NC(=O)[C@@H](C)NC(=O)[C@@H](CCCCN)NC(=O)[C@@H](CCC(N)=O)NC(=O)[C@@H](C)NC(=O)[C@@H](CCCCN)NC(=O)[C@@H](CCC(N)=O)NC(=O)[C@@H](C)NC(=O)[C@@H](CCC(N)=O)NC(=O)[C@@H](CCCCN)NC(=O)[C@@H](C)NC(=O)[C@@H](CCC(N)=O)NC(=O)[C@@H](CCCCN)NC(=O)[C@@H](C)NC(=O)[C@@H](CCC(N)=O)NC(=O)[C@@H](C)NC(=O)[C@@H](CCCCN)NC(=O)[C@@H](CCC(N)=O)NC(=O)[C@@H](C)NC(=O)[C@@H](CCCCN)NC(=O)[C@@H](CO)NC(=O)[C@@H](Cc1ccc(O)cc1)NC(=O)CNC(=O)CNC(=O)CN)C(=O)N[C@H](CCCCN)C(=O)N[C@H](CCC(N)=O)C(=O)N[C@H](C)C(=O)N[C@H](CCCCN)C(=O)N[C@H](CCC(N)=O)C(=O)O
association rate constant (binding, SPR Langmuir fit; rVλ6Wil fibrils; 300 nM, pH 7.4): 360000 M⁻¹ s⁻¹

CCN(Cc1ccccc1)C(=O)CCc1nc(CN2CCN(C(=O)Cc3ccc(OC)c(OC)c3)CC2)no1
activation curve shift (SCN9A (Homo sapiens, UniProt Q15858); sodium current, whole-cell patch clamp; HEK293 stably expressing NaV1.7; 10 µM; relative to: control, towards hyperpolarisation): 4.93 mV

CSCC[C@H](NC(=O)[C@H](CC(C)C)NC(=O)[C@H](Cc1c[nH]cn1)NC(=O)CNC(=O)[C@@H](NC(=O)[C@H](C)NC(=O)[C@H](Cc1c[nH]c2ccccc12)NC(=O)[C@H](CCC(N)=O)NC(=O)CCCCCNC(=O)CNC(=O)CNC(=O)CNC(=O)CSC(C)=O)C(C)C)C(N)=O [technetium-99m labelled]
tissue uptake (healthy Swiss mouse, small intestine, contents removed; intravenous, 18.5 MBq, 90 min): 18.2 ± 2.27 %ID/g

CCCC[C@H](NC(=O)CNC(=O)CNC(=O)c1ccc(NN)nc1)C(=O)N[C@H]1CC(=O)NCCCC[C@@H](C(N)=O)NC(=O)[C@H](Cc2c[nH]c3ccccc23)NC(=O)[C@H](CCCNC(=N)N)NC(=O)[C@@H](Cc2ccccc2)NC(=O)[C@H](Cc2c[nH]cn2)NC1=O [technetium-99m labelled]
tissue uptake ratio (C57 mouse, B16/F1 melanoma-bearing; intravenous, 0.5 h; relative to: tumour over lung): 5.03

N=C(N)NCCC[C@@H]1NC(=O)[C@H](CCCCNC(=O)CCOCCOCCOCCOCCNC(=O)CC[C@H](NC(=O)CCOCCOCCOCCOCCNC(=O)[C@H](CCCCNC(=O)c2ccc(NN)nc2)NC(=O)c2ccc(NN)nc2)C(=O)NCCOCCOCCOCCOCCC(=O)NCCCC[C@@H]2NC(=O)[C@@H](Cc3ccccc3)NC(=O)[C@H](CC(=O)O)NC(=O)CNC(=O)[C@H](CCCNC(=N)N)NC2=O)NC(=O)[C@@H](Cc2ccccc2)NC(=O)[C@H](CC(=O)O)NC(=O)CNC1=O [technetium-99m labelled]
tissue ratio (female athymic nude mice; intravenous, 1 h, U-87 MG glioma xenograft; relative to: tumour over muscle): 10.8 ± 1.92

N=C(N)NCCC[C@@H]1NC(=O)[C@H](CCCCNC(=O)CCOCCOCCOCCOCCNC(=O)CC[C@H](NC(=O)CCOCCOCCOCCOCCNC(=O)CC[C@H](NC(=O)CN2CCN(CC(=O)O)CCN(CC(=O)O)CCN(CC(=O)O)CC2)C(=O)NCCOCCOCCOCCOCCC(=O)N[C@@H](CCC(=O)NCCOCCOCCOCCOCCC(=O)NCCCC[C@@H]2NC(=O)[C@@H](Cc3ccccc3)NC(=O)[C@H](CC(=O)O)NC(=O)CNC(=O)[C@H](CCCNC(=N)N)NC2=O)C(=O)NCCOCCOCCOCCOCCC(=O)NCCCC[C@@H]2NC(=O)[C@@H](Cc3ccccc3)NC(=O)[C@H](CC(=O)O)NC(=O)CNC(=O)[C@H](CCCNC(=N)N)NC2=O)C(=O)NCCOCCOCCOCCOCCC(=O)NCCCC[C@@H]2NC(=O)[C@@H](Cc3ccccc3)NC(=O)[C@H](CC(=O)O)NC(=O)CNC(=O)[C@H](CCCNC(=N)N)NC2=O)NC(=O)[C@@H](Cc2ccccc2)NC(=O)[C@H](CC(=O)O)NC(=O)CNC1=O [indium-111 labelled]
washout half-life (athymic nude mouse, U-87 MG xenograft, tumour): ~40 h

CCCCCCCCC(=O)NCc1ccc(O)c(OC)c1
IC50 (mAb 6-AT6; antibody binding, indirect competitive ELISA; together with: coating antigen 1-OVA): > 4 µg/mL

CCCC[C@H](NC(=O)CNC(=O)[C@H](CO)NC(=O)CNC(=O)c1ccc(NN)nc1)C(=O)N[C@H]1CC(=O)NCCCC[C@@H](C(N)=O)NC(=O)[C@H](Cc2c[nH]c3ccccc23)NC(=O)[C@H](CCCNC(=N)N)NC(=O)[C@@H](Cc2ccccc2)NC(=O)[C@H](Cc2c[nH]cn2)NC1=O [technetium-99m labelled]
uptake (C57 mouse, B16/F1 melanoma, lung; intravenous, 2 h): 0.15 ± 0.05 %ID/g

CSCC[C@H](NC(=O)[C@H](CC(C)C)NC(=O)[C@H](Cc1c[nH]cn1)NC(=O)CNC(=O)[C@@H](NC(=O)[C@H](C)NC(=O)[C@H](Cc1c[nH]c2ccccc12)NC(=O)[C@H](CCC(N)=O)NC(=O)CCCCCNC(=O)CN1CCN(CC(=O)O)CCN(CC(=O)O)CC1)C(C)C)C(N)=O [gallium-68 labelled]
maximum tumour uptake (microPET imaging; mouse PC-3 xenograft, PC-3 tumour; intravenous, 3.7 MBq, 60 min): 4.77 ± 0.96 %ID/g

N=C(N)NCCC[C@@H]1NC(=O)[C@H](CCCCNC(=O)CNC(=O)CNC(=O)CNC(=O)CC[C@H](NC(=O)CCOCCOCCOCCOCCNC(=O)CC[C@H](NC(=O)CN2CCN(CC(=O)O)CCN(CC(=O)O)CCN(CC(=O)O)CC2)C(=O)NCCOCCOCCOCCOCCC(=O)N[C@@H](CCC(=O)NCC(=O)NCC(=O)NCC(=O)NCCCC[C@@H]2NC(=O)[C@@H](Cc3ccccc3)NC(=O)[C@H](CC(=O)O)NC(=O)CNC(=O)[C@H](CCCNC(=N)N)NC2=O)C(=O)NCC(=O)NCC(=O)NCC(=O)NCCCC[C@@H]2NC(=O)[C@@H](Cc3ccccc3)NC(=O)[C@H](CC(=O)O)NC(=O)CNC(=O)[C@H](CCCNC(=N)N)NC2=O)C(=O)NCC(=O)NCC(=O)NCC(=O)NCCCC[C@@H]2NC(=O)[C@@H](Cc3ccccc3)NC(=O)[C@H](CC(=O)O)NC(=O)CNC(=O)[C@H](CCCNC(=N)N)NC2=O)NC(=O)[C@@H](Cc2ccccc2)NC(=O)[C@H](CC(=O)O)NC(=O)CNC1=O [indium-111 labelled]
tumour to bone ratio (female athymic nude mouse; intravenous, 4 h, U-87 MG glioma xenograft; relative to: tumour over bone): 7.87 ± 2.44

CN[C@](C)(C[18F])C(=O)O
tracer uptake (DU-145 tumour model; host not given, tumour; 15 min, tumour-bearing): 3.9 %ID/g
